Published values collected from several papers.
Each numbered part is a random draw from the data of one study; scales do not carry over between parts.

Study 1
Target: RNA binding protein fox-1 homolog 2, RRM domain, GST-SBP tag (RBFOX2, Homo sapiens, UniProt O43251-10, residues 100-194)
Technique: RNA Bind-n-Seq
Molecule type: RNA
Medium: in vitro
Tested at: 365 nM
Setting: natural RNA segment, single round, ends assumed
Reference: no-protein control
Direction: higher = stronger binding
Measurement: RBNS enrichment (R)
Construct (chain): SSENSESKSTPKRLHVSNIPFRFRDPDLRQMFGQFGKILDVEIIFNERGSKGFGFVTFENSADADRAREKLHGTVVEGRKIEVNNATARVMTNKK
GGGAGUUCUACAGUCCGACGAUCAUCUUGAGCUCCGAGUUGGAAGGAGAAAAUGAGAAGUUAACCCCUUGAGCCAUGUGGUCUCUUUACAAUCAAGAGACUGUACAUAUGUGAAAAAAUACAAAUUAAGGACCUGGAAUUCUCGGGUGCCAA: 0.488
GGGAGUUCUACAGUCCGACGAUCUAGGAUCUCACUGCCUCCCUCUCUGGCCUUCCUGUCCCCUCCCUUCAGCUAUGACAGCUGGUGUGGAGUAGAAGGGCAACUAGUUCUGUUAUUUAUUGAACAUUUGGGGUUGGAAUUCUCGGGUGCCAA: 0.26
GGGAGUUCUACAGUCCGACGAUCUUCUAUAUAUUCUAUAUAAAUAUAUAUUGUGGAUGGCCGCCAUGGCGAGUGGUGGCUGGGGCUUUUCUAGGGGCGGGGGACGGGUGGCCCGGCCCCCUCAUCACAAUCAGUGGAAUUCUCGGGUGCCAA: 0.485
GGGAGUUCUACAGUCCGACGAUCAUCCUGGAGUUUUGUUAUCAGCAGCUUUGCAGUUUGGGAAACAAAGAAACCAAAGCUGAGUGUUUUAAAGAAUGAACAUAUCUGGAAAUCCUUGCUCUCAAAACAAAACAUGGAAUUCUCGGGUGCCAA: 0.443

Study 2
Target: Ras GTPase-activating protein-binding protein 1, full length (G3BP1, Homo sapiens, UniProt Q13283)
Sequence of UniProt Q13283 (whole entry, looked up): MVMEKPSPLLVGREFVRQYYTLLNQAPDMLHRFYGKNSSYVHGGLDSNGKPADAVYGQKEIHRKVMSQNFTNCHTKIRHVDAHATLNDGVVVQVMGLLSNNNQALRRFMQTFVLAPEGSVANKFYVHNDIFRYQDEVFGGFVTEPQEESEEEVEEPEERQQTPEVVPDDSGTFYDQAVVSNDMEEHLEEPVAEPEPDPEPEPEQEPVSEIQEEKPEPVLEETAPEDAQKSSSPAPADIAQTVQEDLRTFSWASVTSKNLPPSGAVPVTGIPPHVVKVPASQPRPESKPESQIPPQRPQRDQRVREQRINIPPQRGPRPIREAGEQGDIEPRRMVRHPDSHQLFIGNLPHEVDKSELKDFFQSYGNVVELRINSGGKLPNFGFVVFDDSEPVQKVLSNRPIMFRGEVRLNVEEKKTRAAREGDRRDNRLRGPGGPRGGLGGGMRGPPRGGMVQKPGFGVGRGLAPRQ
Technique: RNA Bind-n-Seq
Molecule type: RNA
Medium: in vitro
Tested at: 200 nM
Setting: whole 134-nt RNA, ends assumed
Added: 150 mM LiCl
Reference: input library
Direction: higher = stronger binding
Measurement: log2 enrichment
Each molecule: 7-deaza-guanosine replaces G
GGGAGUUCUACAGUCCGACGAUCUCCUGUGCUACACAUCGUAUGUACCGAAUCGGGGAAAAAGGGGAGGGGUUUUUUUGGGGAAAGUAUUAUGUUACGCCGUUCGGAUCUGCAUGGAAUUCUCGGGUGUCAAGG: 0.9
GGGAGUUCUACAGUCCGACGAUCUCCUGUGCUACACAUCGUAUGUACCGAAUCGGGGCCCCCCGGGCCCCCCGGCCCCCCGGGAAAGUAUUAUGUUACGCCGUUCGGAUCUGCUGGAAUUCUCGGGUGUCAAGG: 0.398
GGGAGUUCUACAGUCCGACGAUCACCAUAAAGGUGGGCAUCUUUGGGAAGUGGGGCAAGGGGGGGAUAGGGAGGGGGGUAACACUUUGGGAACAGGUGGUCCCAGGUCGUUUCUGGAAUUCUCGGGUGUCAAGG: 0.415

Study 3
Target: Sal-like protein 4, full length isoform A (SALL4, Homo sapiens, UniProt Q9UJQ4, residues 1-1053)
Sequence of UniProt Q9UJQ4 (whole entry, looked up): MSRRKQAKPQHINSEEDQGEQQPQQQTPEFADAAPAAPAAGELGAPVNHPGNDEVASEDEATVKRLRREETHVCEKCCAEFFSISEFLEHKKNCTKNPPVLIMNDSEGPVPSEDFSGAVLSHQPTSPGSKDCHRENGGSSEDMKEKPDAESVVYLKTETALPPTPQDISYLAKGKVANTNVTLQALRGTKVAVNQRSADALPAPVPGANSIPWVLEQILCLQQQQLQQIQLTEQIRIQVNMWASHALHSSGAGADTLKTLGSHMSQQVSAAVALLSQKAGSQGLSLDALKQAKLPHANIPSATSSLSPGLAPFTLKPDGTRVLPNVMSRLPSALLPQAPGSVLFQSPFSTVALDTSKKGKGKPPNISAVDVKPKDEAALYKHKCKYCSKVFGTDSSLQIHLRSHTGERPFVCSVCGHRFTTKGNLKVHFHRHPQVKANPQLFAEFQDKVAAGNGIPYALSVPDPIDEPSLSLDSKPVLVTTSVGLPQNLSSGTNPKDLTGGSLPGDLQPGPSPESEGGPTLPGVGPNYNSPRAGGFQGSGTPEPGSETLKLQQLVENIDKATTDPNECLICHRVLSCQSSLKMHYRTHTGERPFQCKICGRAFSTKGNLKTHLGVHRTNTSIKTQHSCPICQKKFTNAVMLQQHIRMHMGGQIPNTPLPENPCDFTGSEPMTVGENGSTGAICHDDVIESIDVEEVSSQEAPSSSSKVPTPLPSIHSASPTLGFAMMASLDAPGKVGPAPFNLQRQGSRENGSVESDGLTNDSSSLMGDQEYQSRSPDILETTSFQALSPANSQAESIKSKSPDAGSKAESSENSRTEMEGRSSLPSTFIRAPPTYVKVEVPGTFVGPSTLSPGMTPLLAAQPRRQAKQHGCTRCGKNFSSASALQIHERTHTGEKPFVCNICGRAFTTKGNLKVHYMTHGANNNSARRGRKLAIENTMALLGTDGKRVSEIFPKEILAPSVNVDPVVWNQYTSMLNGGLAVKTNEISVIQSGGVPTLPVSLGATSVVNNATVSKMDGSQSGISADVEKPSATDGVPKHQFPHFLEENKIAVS
Technique: universal PBM
Molecule type: double-stranded DNA, one strand shown
Medium: in vitro
Tested at: 600 nM
Setting: 8-mer, flanks averaged, mean of replicates
Direction: higher = stronger binding
Measurement: E-score
CATCACCC: -0.199
CCAGAAAG: -0.0952
GCCATAAC: 0.1

Further values, each from its own experiment
PhoQ, residues 284 288 289 292 302 303 ALAMYF  fold induction (PhoP, residues 12 14 15 18 19 GQAIL (Escherichia coli, UniProt P23836); Sort-seq, item: YFP reporter; E. coli; PhoQ-PhoP variant library, added: 10 µM Mg2+; reference: high Mg2+ state, higher = stronger signaling): 1.93

For quick reference, copied from above (study 1):
GGGAGUUCUACAGUCCGACGAUCUAGGAUCUCACUGCCUCCCUCUCUGGCCUUCCUGUCCCCUCCCUUCAGCUAUGACAGCUGGUGUGGAGUAGAAGGGCAACUAGUUCUGUUAUUUAUUGAACAUUUGGGGUUGGAAUUCUCGGGUGCCAA: 0.26
